Measured values gathered from unrelated publications.
± gives the spread as reported.
Spike glycoprotein: Spike glycoprotein (Severe acute respiratory syndrome coronavirus 2, UniProt P0DTC2)
B1: cytochrome c peroxidase H52D; sequence looked up; chain TTPLVHVASVEKGRSYEDFQKVYNAIALKLREDDEYDNYIGYGPVLVRLAWDTSGTWDKHDNTGGSYGGTYRFKKEFNDPSNAGLQNGFKFLEPIHKEFPWISSGDLFSLGGVTAVQEMQGPKIPWRCGRVDTPEDTTPDNGRLPDADKDADYVRTFFQRLNMNDREVVALMGAHALGKTHLKNSGYEGPWGAANNVFTNEFYLNLLNEDWKLEKNDANNEQWDSKSGYMMLPTDYSLIQDPKYLSIVKEYANDQDKFFKDFSKAFEKLLENGITFPKDAPSPFIFKTLEEQGL
Sequence of UniProt P0A8T7 (whole entry, looked up): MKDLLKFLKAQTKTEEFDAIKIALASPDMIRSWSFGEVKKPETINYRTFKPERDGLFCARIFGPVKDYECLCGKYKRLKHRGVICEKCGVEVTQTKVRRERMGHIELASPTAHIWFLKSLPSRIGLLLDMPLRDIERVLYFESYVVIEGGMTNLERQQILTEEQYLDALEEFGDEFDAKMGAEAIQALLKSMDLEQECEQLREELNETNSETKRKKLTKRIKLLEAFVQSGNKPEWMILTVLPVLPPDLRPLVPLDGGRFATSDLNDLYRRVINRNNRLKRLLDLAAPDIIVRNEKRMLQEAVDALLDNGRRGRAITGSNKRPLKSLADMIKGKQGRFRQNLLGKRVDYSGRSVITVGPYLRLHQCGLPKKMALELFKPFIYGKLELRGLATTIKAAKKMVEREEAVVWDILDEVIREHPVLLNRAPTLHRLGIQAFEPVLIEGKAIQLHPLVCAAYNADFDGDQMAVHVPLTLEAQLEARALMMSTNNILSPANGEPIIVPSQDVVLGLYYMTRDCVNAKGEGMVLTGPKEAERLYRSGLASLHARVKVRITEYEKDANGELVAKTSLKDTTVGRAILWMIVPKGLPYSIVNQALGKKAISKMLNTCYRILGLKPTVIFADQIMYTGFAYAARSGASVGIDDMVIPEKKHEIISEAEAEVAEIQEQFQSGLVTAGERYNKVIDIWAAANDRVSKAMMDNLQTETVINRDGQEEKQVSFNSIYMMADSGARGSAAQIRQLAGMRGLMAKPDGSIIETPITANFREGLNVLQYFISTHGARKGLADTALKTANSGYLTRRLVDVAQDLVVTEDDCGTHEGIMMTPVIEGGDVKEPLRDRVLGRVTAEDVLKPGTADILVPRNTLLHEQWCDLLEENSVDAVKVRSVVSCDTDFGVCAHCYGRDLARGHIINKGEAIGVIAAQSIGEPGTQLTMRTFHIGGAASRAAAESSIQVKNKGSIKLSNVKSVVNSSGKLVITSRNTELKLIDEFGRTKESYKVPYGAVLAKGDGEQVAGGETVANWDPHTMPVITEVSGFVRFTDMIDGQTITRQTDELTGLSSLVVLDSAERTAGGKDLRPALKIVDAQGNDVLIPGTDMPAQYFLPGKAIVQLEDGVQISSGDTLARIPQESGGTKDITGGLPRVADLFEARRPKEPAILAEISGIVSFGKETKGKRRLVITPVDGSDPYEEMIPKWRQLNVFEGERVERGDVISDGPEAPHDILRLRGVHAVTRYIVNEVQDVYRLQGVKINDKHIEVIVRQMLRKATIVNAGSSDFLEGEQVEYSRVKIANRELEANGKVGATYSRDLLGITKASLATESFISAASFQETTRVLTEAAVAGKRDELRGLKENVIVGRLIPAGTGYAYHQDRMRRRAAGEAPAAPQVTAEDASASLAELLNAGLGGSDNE
Sequence of UniProt P42264 (whole entry, looked up): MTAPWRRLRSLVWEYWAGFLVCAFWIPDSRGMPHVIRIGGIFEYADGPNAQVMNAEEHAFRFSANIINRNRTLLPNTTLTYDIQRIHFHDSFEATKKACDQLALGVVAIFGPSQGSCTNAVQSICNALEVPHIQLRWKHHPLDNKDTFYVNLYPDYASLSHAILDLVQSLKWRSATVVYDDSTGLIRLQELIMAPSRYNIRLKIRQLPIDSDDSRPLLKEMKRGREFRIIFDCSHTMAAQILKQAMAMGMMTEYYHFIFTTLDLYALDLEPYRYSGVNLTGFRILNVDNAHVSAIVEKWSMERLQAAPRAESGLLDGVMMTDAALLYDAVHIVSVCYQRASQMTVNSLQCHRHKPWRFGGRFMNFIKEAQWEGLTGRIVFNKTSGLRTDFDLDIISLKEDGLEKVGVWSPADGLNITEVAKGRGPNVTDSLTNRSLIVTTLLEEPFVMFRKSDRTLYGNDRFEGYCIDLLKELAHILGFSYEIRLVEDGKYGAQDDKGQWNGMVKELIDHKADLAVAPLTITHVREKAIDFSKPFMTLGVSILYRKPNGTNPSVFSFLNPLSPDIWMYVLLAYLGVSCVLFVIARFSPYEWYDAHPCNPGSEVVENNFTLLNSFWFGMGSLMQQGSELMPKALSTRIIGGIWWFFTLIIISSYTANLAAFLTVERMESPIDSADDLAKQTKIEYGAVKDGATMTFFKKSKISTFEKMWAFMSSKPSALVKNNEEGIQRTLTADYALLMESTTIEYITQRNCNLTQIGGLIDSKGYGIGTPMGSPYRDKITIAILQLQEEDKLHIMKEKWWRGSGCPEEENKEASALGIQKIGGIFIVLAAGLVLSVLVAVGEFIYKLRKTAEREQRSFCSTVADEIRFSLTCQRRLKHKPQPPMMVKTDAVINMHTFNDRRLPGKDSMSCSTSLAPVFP
Sequence of UniProt P33261 (whole entry, looked up): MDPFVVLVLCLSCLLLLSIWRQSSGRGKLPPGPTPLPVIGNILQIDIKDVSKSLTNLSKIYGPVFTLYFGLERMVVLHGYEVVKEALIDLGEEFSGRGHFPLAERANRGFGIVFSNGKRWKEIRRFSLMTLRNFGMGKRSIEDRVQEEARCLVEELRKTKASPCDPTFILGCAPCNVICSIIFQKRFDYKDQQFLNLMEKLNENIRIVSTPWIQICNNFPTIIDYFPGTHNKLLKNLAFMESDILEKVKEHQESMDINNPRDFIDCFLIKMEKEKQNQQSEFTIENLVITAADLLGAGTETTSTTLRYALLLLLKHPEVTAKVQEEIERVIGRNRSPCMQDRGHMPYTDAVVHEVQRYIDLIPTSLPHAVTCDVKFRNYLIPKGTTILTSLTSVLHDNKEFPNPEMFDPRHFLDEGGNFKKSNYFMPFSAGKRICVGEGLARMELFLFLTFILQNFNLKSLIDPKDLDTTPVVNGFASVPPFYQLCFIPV
Sequence of UniProt P0A8V2 (whole entry, looked up): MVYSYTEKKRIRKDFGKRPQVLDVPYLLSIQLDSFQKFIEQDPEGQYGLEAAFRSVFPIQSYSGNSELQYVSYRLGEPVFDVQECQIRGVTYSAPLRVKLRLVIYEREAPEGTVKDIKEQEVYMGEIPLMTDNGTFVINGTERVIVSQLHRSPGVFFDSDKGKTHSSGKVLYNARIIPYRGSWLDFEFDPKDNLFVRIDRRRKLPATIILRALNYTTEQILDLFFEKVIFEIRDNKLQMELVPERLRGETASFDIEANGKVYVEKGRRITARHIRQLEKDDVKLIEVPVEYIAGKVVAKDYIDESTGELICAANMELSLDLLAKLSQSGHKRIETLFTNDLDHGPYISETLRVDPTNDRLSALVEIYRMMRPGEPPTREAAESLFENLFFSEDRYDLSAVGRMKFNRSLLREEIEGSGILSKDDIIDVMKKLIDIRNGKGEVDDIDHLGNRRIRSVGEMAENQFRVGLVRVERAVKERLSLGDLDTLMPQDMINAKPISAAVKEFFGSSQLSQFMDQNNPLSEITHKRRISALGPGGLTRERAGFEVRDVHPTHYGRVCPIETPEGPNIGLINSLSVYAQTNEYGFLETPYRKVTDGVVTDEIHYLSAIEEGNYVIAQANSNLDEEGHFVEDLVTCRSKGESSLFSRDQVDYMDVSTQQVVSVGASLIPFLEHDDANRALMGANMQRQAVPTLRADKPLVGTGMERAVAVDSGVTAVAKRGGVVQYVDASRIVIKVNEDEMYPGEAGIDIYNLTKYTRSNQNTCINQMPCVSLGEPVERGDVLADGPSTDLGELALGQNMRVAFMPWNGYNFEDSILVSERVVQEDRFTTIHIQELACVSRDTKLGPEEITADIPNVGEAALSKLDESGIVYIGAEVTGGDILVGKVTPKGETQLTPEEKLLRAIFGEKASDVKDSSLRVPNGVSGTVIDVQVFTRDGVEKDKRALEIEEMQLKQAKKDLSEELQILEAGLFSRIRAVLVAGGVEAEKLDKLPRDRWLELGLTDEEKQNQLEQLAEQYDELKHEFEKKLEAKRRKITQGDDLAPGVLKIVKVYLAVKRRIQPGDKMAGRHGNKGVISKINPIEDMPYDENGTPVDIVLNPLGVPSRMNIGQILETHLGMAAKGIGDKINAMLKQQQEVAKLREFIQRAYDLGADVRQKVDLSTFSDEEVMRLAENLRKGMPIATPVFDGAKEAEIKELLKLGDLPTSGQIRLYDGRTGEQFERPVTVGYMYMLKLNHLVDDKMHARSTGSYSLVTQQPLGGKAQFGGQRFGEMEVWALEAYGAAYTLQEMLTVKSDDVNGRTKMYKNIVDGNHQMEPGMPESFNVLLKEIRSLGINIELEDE

Substance	target or system	test	test system	conditions	how to read	endpoint	result
CC(=O)O[C@@H]1[C@H](N)[C@@H](OP(=O)(O)O)[C@@]2(C(=O)O)CS[C@@](O)(C(N)=O)[C@@H]1O2	DNA-directed RNA polymerase subunit beta' / DNA-directed RNA polymerase subunit beta (rpoC/rpoB, Escherichia coli, UniProt P0A8T7+P0A8V2)	binding to elongation complex, 6-MI fluorescence titration	wild-type RNAP	2′-deoxy RNA 3′-end Guanine		Kd	3.6 ± 1 µM
O=c1cc(-c2ccc(O)cc2)oc2cc(O)c(O)c(O)c12	Spike glycoprotein	binding, biolayer interferometry				Kd	52.3 µM
CSCC[C@H](NC(=O)[C@@H](N)CCC(=O)O)C(=O)N[C@@H](Cc1c[nH]cn1)C(=O)N[C@@H](CCC(N)=O)C(=O)N[C@@H](Cc1c[nH]c2ccccc12)C(=O)N[C@@H](CCCNC(=N)N)C(=O)N[C@@H](CCCNC(=N)N)C(=O)N[C@@H](Cc1c[nH]c2ccccc12)C(=O)O	Toxin B, glucosyltransferase domain (Clostridioides difficile, UniProt A0A9R0CDJ3)	glucosyltransferase activity, inhibitor, UDP-Glo glucosyltransferase luminescence		added: Rac1 and UDP-glucose		Ki	919 µM
Cn1cnc(Cn2c(=O)[nH]/c(=N\c3cc4cn(C)nc4cc3Cl)n(Cc3cc(F)c(F)cc3F)c2=O)n1	Cytochrome P450 2C19 (CYP2C19, Homo sapiens, UniProt P33261)	inhibitor	human liver microsomes	30 min preincubation, preincubation without NADPH, added: S-mephenytoin 60 µM		IC50	> 100000 nM
N[C@@H](C[C@]1(C(=O)O)C[C@H]2OC[C@@H](O)[C@@H](O)[C@H]2O1)C(=O)O	Glutamate receptor ionotropic, kainate 3 (Rattus norvegicus, UniProt P42264)	binding, [3H]kainate displacement	HEK293T/17 membranes	added: [3H]kainate		Ki	3 µM
VAMPNLYKM		AIM	peptide, CD8+ T cells from PBMC, human donors	dose not given		response magnitude per positive donor	108
B1 (cytochrome c peroxidase H52D)	cyanide binding	spectrophotometric titration		pH 6.0, 25 °C, added: cyanide		Kd	3000 µM
O=C(N[C@@H]1CCCc2c1[nH]c1ccc(Cl)cc21)c1ccccn1	HEK293T	reporter gene, firefly luciferase		24 h, added: Marburg VP24		IC50	10 nM
C[C@H]1CC[C@@]2(OC1)O[C@H]1C[C@H]3[C@@H]4CC[C@@H]5C[C@@H](O[C@@H]6O[C@H](CO)[C@H](O)[C@H](O)[C@H]6O[C@@H]6O[C@H](CO)[C@@H](O)[C@H](O)[C@H]6O)CC[C@]5(C)[C@H]4CC[C@]3(C)[C@H]1[C@@H]2C	Spike glycoprotein	binding, biolayer interferometry				Kd	13.4 µM
LPKEITVAT		AIM	peptide, CD8+ T cells from PBMC, human donors	HLA-B*07:02 restricted, unit not given	baseline: positive over tested donors	frequency of responding donors	50
CC[C@H](C)[C@H](NC(=O)[C@H](CC(C)C)NC(=O)[C@H](CO)NC(=O)[C@H](Cc1c[nH]cn1)NC(=O)[C@@H](NC(=O)[C@H](CC(C)C)NC(=O)[C@H](CO)NC(=O)[C@@H](NC(=O)[C@H](Cc1ccc(O)cc1)NC(=O)[C@H](CC(N)=O)NC(=O)[C@H](CC(N)=O)NC(=O)[C@@H](NC(=O)[C@H](CCC(=O)O)NC(=O)[C@H](CCCNC(=N)N)NC(=O)[C@H](CC(=O)O)NC(=O)[C@H](Cc1c[nH]c2ccccc12)NC(=O)[C@H](CCC(=O)O)NC(=O)[C@H](CCSC)NC(=O)[C@H](Cc1c[nH]c2ccccc12)NC(C)=O)[C@@H](C)CC)[C@@H](C)O)[C@@H](C)CC)C(=O)N[C@@H](CCC(=O)O)C(=O)N[C@@H](CCC(=O)O)C(=O)N[C@@H](CO)C(=O)N[C@@H](CCC(N)=O)C(=O)N[C@@H](CC(N)=O)C(=O)N[C@@H](CCC(N)=O)C(=O)N[C@@H](CCC(N)=O)C(=O)N[C@@H](CCC(=O)O)C(=O)N[C@@H](CCCCN)C(=O)N[C@@H](CC(N)=O)C(=O)N[C@@H](CCC(=O)O)C(=O)N[C@@H](CCC(N)=O)C(=O)N[C@@H](CCC(=O)O)C(=O)N[C@@H](CC(C)C)C(=O)N[C@@H](CC(C)C)C(=O)NCC(=O)N[C@@H](CO)C(=O)NCC(=O)N[C@@H](CSCC(=O)O[C@H]1CC[C@@]2(C)C(=CC[C@H]3[C@@H]4CC[C@H]([C@H](C)CCCC(C)(C)O)[C@@]4(C)CC[C@@H]32)C1)C(N)=O		monolayer insertion, Langmuir surface pressure	POPC:cholesterol monolayer	25 °C, ratio 2:1, initial pressure 20.5 mN/m		Kd	0.248 ± 0.0548 µM
CC[C@H](CC[C@@H](C)[C@H]1CC[C@H]2[C@@H]3CC=C4C[C@@H](O[C@@H]5O[C@H](CO)[C@@H](O)[C@H](O)[C@H]5O)CC[C@]4(C)[C@H]3CC[C@]12C)C(C)C	Spike glycoprotein	binding, biolayer interferometry				Kd	130 µM

Repeated from above:
Substance	target or system	test	test system	conditions	how to read	endpoint	result
B1 (cytochrome c peroxidase H52D)	cyanide binding	spectrophotometric titration		pH 6.0, 25 °C, added: cyanide		Kd	3000 µM
